Assay results from different studies.
Parts stem from different laboratories: compare values within a part only. Positions count from the first letter of the parent shown.

Study 1 — technique: DHFR PCA, deep sequencing; matrix: yeast; added: (+)-ABA 0.0091 µM; baseline: wild-type fitted maximum; reading: higher = stronger binding; endpoint: relative binding score
Target: ABI1, truncated, D143A, DHFR fusion (Arabidopsis thaliana)
Notes: methotrexate growth selection, single substitutions
Starting sequence: PYL1, truncated, DHFR fusion (Arabidopsis thaliana); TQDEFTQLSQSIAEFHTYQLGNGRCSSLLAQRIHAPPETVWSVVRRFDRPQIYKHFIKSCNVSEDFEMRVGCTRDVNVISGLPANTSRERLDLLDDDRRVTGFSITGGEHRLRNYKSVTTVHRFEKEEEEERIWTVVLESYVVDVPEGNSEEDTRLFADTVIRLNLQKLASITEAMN; partner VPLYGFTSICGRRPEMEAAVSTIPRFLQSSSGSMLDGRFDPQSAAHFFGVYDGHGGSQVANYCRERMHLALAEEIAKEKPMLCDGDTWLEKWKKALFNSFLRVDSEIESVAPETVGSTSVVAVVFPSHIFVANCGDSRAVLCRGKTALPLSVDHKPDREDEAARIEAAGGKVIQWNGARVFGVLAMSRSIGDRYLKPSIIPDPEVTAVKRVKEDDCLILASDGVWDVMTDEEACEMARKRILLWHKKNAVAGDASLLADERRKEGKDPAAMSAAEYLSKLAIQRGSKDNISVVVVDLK
T86G: -1.8%
N85K: 46.6%
V142I: 24%
R113T: 15.5%
S59D: 26.1%
C72W: 3.74%
D159M: -6.05%
I162R: -1.93%
S171A: 41.3%
S42W: 0.509%
T17W: -9.41%
E152P: -2.82%

Study 2 — target: CCNB2, cyclin fold, Cln2 fusion (human); technique: yeast growth competition, sequencing; matrix: yeast; notes: weak parent motif; baseline: not given; reading: higher = stronger binding; endpoint: normalised enrichment score
Starting sequence: AKAP12 docking peptide (human); GSPLKKLFTSTGL; partner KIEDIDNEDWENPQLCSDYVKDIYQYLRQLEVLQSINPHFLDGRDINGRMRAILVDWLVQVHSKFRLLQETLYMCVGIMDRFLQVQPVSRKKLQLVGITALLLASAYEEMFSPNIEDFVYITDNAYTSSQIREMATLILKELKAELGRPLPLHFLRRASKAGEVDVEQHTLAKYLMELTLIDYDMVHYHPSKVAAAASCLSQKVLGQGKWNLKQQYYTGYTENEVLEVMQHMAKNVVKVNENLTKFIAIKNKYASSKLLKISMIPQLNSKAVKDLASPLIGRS
GSPLKKLFTSTGA [L13A]: 0.00241
GSPLRKLLTSTGL [K5R F8L]: 0.293
GSPLKALFTSTGL [K6A]: -0.0894
GSPLKKLFTSTAL [G12A]: -0.843
ASPLKKLFTSTGL [G1A]: 0.62
GSPLKKLFTSAGL [T11A]: -0.768
GAPLKKLFTSTGL [S2A]: 0.371

Study 3 — technique: RNA Bind-n-Seq; molecule type: RNA; matrix: in vitro; tested at: not given; baseline: input RNA pool; reading: higher = stronger binding; endpoint: bound/input enrichment
Target: RING finger protein unkempt homolog, zinc fingers 1-6, GST-SBP tag (UNK, Homo sapiens, UniProt Q9C0B0, residues 30-357)
UniProt Q9C0B0, sequence (30-357, looked up): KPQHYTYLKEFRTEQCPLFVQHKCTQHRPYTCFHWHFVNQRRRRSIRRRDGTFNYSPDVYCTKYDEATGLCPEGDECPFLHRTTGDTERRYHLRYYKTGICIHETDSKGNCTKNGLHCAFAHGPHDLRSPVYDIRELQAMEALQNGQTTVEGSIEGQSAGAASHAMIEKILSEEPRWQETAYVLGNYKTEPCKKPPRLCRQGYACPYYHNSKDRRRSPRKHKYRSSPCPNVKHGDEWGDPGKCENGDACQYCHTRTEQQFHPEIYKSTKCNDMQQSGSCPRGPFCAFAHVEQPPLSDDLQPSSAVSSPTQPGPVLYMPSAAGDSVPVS
Notes: RNA with constant flanks, human-mouse chimeric sites, ends assumed
Shared flanks, not repeated: GGGAGUUCUACAGUCCGACGAUC … CAACAGAGGAUUGAGCAUCA
UUAAUCCCCUUCGUUGCUCCCCCACUUCUCAUGGUAAUAACAAAGUCUUAUAUCCCCGUCCUAGCUUUCACUCAGAUGGCUUAUGGAGCCAGUUUCCUAGCUUUCUUGGGAGGGAUCAGA: 0.346 ratio
AAAGAAUGGAUAGAGUGUGCACACGGGAUCGGUGGGACCCGGGCGAAAAAGGAGUGCAAGAUAGAGUUCGAUGACUUCGAAGAGUGCUUGCUUCGGUACAAAACGAUGAGACGUGCACAU: 0.363 ratio
CACAGAGCAGCACCUACCCCCUCCUCCUUUCCACACCUGCAAACUCUUUUACUUGGGCUGAAUAUUUAGUGUAAUUACAUCUCAGCUUUGAGGGCUCCCUGUGGCAAUUCCCGGAUUAAA: 1.4 ratio
UGUGAACUGUCUCUUGAGAUCUAAAAACAAGAUGACUUUUCCUGGCACAUAUUCCAAAGCAAAGACUUUGUUGCCUGCUGCUUCUUGUCUAAUUUACAGGGAUAUUUAAUUUUGUCAGGU: 0.232 ratio
AACAGAUUGUCUUUAAGCAUUCCAAGCGAGAAUGCUGAAAUAGUCAUUGUUGCCCAUGUGCCUUCUGACUGAGCUUUUAAUUAAUUGCAUGUUACAUCUUUCCUUCACUCCAGAAUUGUU: 0.447 ratio
CUCUUUGAAUCAUUCAAGAGUUUUGAAGGUCUCUUUUAUUUUCUGGGGUCCAUUGUUAACUUUAGCCAGGACCCAGAUGUGCACUUUAAAUAUAUUCAGGCGGCUUGCAAGACUGGGCAA: 0.335 ratio
UCUUAACGUCCAUUUAAAACUUAUUUUUAUAGCUAGAUAAAUAUUGUUAGUCUUAGACAAUAGCUCACAUCUUUACAGAAGCAUGCCCUCCCUGUCCAUUUGUCUUAUAACAUGACCCAG: 38.2 ratio
GAUCAUGAACCACCAUCAGAAAUGAAGAUGAGAUUACCCAGACGAGCCAAAACAGCUGCGCUACAGAAAAAGUAAACUAACCUUGCAGAGUUCCUUAAUGAAGAUACUAAGUUAGGAAGC: 0.453 ratio

Study 4 — technique: RNA Bind-n-Seq; molecule type: RNA; matrix: in vitro; tested at: 365 nM; baseline: no-protein control; reading: higher = stronger binding; endpoint: RBNS enrichment (R)
Target: RNA binding protein fox-1 homolog 2, RRM domain, GST-SBP tag (RBFOX2, Homo sapiens, UniProt O43251-10, residues 100-194)
Notes: natural RNA segment, single round, ends assumed
Shared flanks, not repeated: GGGAGUUCUACAGUCCGACGAUC … UGGAAUUCUCGGGUGCCAA
Residues (chain): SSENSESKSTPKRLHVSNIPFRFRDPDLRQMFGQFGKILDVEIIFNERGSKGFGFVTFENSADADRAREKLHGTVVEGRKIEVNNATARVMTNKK
AAAAGACAUAAAUGAAUUAGGCACCCAGAAGAAGUUGCAUGUUUGGAAAUGCAAUAUCUUGGGGAGACGUCAACUUCUGAAGUGACUUUGAAGGCAGGGCAGCUACCCAG: 1.01
UUAUAACUAGUUAGUUAUCACCUCGUCCCUUAAAGUCAGUGACCUCCUGUGUUUGAUGUAUAUUACAUAGAGUCUUAAGUCAGUGUACAGUUCCACUGGAAUUUGACAGU: 0.528
AUGGACGCCUGGGUCUGACCUGACACUGUGCUGGGAGAAUCAGGAUGUGUGUCUAAUGGCGAGCUGACAGCCCUCUGCUGAUAUUUGGCAGAAGGCACCAGACCAGCCCA: 0.215
AGGAAGUACUGAGUGGCUGCACCGAGAAAGGACUUGGCUAGUAAGGUUAGAAUGUGCAUCGCGCAUAGCCGAGCAGCCUGCUAGCAGGUGACACACUCCGUGGGGGAGGC: 3.53
UUGUGGUUUCUGUUUCUUGAGAAAAAUUUUUUGUUAUUUUUACAUCUAACAGAGGAAAAAAAAUUUAAAAAGAGGGUAAGAAAUGACUCCAGUGGGGUGAUUUUAACAUG: 0.762
GUUUUAUUUGUAUAGUCUUACGUUGAUAGACAGCCCCACUGGAAUUGACCAAUUGUCUACACAGCGACACAGAGUGUUGUGUAUGAAACGGAGUAACUGGCUUAAGGGGU: 0.55
UAAUUUUACCUUCACAUUAAUUCAAACCGUGCAAGUAACCACGGGGUCCAUCUUUUACAUCUGGUACACACAACAGACGCUCAGUUGUUCUUAACCACUUUUGUCAUUUG: 0.563
UAAAGGGGACUCUCACUAGGCUAGAGGCCGCCUUCUGCUCCUCUCUUGCACUGACUCUGUGGAGGGGGUCUUCAUUCACUAAACUGACCCAGGAUGGAACACGAAACCAC: 0.447
